{"data": "Experimental data gathered from unrelated publications", "note": "Every numbered part comes from another study and shows a few of its results, in no order. Positions count from the first letter of the parent shown."}
{"data": "Block 1", "target": "CCND3, cyclin fold, Cln2 fusion (human)", "method": "yeast growth competition, sequencing", "matrix": "yeast", "notes": "weak parent motif", "relative to": "not given", "reading": "higher = stronger binding", "starting sequence": "REV3L docking peptide (human); PPVIIKYIIINRF"}
{"Variant": "R12A", "normalised enrichment score": 0.274}
{"Variant": "I10A", "normalised enrichment score": 0.295}
{"Variant": "I4A", "normalised enrichment score": -0.108}
{"Variant": "N11A", "normalised enrichment score": 0.361}
{"Variant": "P2A", "normalised enrichment score": -0.063}
{"Variant": "F13A", "normalised enrichment score": 0.716}
{"Variant": "Y7A", "normalised enrichment score": 0.461}
{"data": "Block 2", "target": "PABPC1L2, full length, GST fusion (mouse, UniProt A0ABA7IW68)", "method": "RNAcompete", "form": "RNA", "matrix": "in vitro", "tested at": "20 nM", "notes": "7-mer, probes averaged, single round", "relative to": "mean of 7-mers", "reading": "higher = stronger binding", "Construct (chain)": "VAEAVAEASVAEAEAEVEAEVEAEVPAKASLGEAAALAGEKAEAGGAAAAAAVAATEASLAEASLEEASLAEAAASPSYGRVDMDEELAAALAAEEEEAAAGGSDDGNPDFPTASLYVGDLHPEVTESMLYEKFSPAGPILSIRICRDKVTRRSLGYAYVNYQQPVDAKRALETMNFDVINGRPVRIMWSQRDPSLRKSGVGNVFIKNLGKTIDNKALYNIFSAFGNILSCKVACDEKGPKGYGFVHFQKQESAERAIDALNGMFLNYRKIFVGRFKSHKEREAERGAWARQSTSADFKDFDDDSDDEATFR"}
{"Oligonucleotide": "UGGAAGG", "7-mer Z-score": 0.231}
{"Oligonucleotide": "GCGGGGC", "7-mer Z-score": 0.157}
{"Oligonucleotide": "CCUGGUA", "7-mer Z-score": -0.197}
{"Oligonucleotide": "GCAGGCA", "7-mer Z-score": 0.314}
{"Oligonucleotide": "UGAUAUG", "7-mer Z-score": -0.168}
{"Oligonucleotide": "AUCGGGU", "7-mer Z-score": -0.0319}
{"Oligonucleotide": "AAACUCA", "7-mer Z-score": 0.437}
{"Oligonucleotide": "UCUACGA", "7-mer Z-score": -0.106}
{"data": "Block 3", "target": "CRIPT, C-terminal peptide", "method": "DHFR complementation, deep sequencing", "matrix": "yeast", "notes": "single substitutions, model-inferred values", "relative to": "wild type", "reading": "higher = weaker binding", "starting sequence": "ERBIN, PDZ domain 1 (human); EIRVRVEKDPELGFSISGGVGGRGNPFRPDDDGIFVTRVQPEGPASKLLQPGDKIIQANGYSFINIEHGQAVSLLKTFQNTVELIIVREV; partner TKNYKQTSV"}
{"Variant": "A71M", "binding free energy change [kcal/mol]": 0.904}
{"Variant": "S46A", "binding free energy change [kcal/mol]": -0.0585}
{"Variant": "T37K", "binding free energy change [kcal/mol]": 1.41}
{"Variant": "N65G", "binding free energy change [kcal/mol]": -0.0971}
{"Variant": "P41F", "binding free energy change [kcal/mol]": 0.381}
{"Variant": "P41D", "binding free energy change [kcal/mol]": 0.275}
{"Variant": "G69W", "binding free energy change [kcal/mol]": 0.195}
{"Variant": "I55K", "binding free energy change [kcal/mol]": 1.44}
{"data": "Single results of other studies", "starting sequence": "PafA, mature enzyme, eGFP fusion (Elizabethkingia meningoseptica, UniProt Q9KJX5); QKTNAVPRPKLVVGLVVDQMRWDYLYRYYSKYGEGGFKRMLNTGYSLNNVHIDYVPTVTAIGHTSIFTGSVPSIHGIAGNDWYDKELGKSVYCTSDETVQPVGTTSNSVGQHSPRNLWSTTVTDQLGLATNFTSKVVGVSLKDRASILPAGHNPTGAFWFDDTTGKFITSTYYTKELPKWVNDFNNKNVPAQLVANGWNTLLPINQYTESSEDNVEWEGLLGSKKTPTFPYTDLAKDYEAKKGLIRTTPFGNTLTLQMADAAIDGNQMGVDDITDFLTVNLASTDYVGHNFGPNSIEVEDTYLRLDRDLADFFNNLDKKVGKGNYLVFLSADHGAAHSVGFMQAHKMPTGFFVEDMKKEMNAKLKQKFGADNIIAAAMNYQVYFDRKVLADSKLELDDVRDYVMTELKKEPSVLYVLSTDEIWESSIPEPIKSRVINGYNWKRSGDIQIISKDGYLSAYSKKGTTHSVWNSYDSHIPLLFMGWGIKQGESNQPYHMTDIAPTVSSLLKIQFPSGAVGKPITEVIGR"}
{"Variant": "T104V", "target": "inorganic phosphate, free oxyanion", "test": "microfluidic competitive inhibition", "test system": "in vitro, cell-free expressed", "conditions": "not given, derived from inhibition constants, unchanged parent 615000 nM", "scale": "lower = stronger binding", "measurement": "phosphate dissociation constant", "value": "520 µM"}
{"note": "Some of these lines once more (block 3):"}
{"Variant": "P41D", "binding free energy change [kcal/mol]": 0.275}
{"Variant": "G69W", "binding free energy change [kcal/mol]": 0.195}
{"Variant": "A71M", "binding free energy change [kcal/mol]": 0.904}
{"Variant": "T37K", "binding free energy change [kcal/mol]": 1.41}
